Published values from different studies.
Compare with care: the assays were run in different laboratories. ± marks the error that the study gave.
Chain of UniProt P0A8T7 (whole entry, looked up): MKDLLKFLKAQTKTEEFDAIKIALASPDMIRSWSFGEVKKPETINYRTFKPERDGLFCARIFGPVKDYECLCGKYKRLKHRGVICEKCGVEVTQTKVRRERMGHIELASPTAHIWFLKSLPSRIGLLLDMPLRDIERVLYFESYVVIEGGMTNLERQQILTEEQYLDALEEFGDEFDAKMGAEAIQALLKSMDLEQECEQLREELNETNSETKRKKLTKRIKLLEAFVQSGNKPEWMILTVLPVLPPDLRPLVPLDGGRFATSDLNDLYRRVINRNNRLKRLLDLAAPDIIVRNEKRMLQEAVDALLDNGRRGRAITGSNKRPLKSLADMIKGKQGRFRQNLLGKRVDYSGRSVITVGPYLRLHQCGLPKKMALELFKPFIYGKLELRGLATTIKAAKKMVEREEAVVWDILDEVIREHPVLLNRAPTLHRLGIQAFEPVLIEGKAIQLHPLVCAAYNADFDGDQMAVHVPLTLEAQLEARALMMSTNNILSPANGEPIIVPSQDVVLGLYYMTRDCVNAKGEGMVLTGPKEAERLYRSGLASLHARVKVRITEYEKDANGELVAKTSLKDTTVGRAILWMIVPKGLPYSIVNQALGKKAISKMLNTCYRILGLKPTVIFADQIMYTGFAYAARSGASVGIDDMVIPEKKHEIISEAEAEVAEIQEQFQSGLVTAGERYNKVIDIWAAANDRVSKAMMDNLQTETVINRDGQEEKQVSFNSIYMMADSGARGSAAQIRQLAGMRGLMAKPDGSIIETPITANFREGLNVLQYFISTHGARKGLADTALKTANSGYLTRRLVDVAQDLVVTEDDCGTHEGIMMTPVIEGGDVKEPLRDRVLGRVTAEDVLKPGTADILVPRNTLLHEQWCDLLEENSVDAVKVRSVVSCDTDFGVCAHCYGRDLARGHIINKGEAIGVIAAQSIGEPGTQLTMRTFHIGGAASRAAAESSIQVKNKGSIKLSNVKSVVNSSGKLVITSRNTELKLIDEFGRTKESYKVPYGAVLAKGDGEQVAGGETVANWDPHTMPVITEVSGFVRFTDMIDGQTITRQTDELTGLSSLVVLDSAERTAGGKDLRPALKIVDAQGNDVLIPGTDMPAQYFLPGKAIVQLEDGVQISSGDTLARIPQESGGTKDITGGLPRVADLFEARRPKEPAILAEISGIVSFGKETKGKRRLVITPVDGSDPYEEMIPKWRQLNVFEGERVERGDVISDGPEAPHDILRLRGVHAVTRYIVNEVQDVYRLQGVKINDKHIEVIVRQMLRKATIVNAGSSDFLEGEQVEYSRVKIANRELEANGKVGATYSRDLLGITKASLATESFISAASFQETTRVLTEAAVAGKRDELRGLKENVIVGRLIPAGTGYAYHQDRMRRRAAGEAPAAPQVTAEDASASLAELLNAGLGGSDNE
Chain of UniProt Q6Q1S2 (whole entry, looked up): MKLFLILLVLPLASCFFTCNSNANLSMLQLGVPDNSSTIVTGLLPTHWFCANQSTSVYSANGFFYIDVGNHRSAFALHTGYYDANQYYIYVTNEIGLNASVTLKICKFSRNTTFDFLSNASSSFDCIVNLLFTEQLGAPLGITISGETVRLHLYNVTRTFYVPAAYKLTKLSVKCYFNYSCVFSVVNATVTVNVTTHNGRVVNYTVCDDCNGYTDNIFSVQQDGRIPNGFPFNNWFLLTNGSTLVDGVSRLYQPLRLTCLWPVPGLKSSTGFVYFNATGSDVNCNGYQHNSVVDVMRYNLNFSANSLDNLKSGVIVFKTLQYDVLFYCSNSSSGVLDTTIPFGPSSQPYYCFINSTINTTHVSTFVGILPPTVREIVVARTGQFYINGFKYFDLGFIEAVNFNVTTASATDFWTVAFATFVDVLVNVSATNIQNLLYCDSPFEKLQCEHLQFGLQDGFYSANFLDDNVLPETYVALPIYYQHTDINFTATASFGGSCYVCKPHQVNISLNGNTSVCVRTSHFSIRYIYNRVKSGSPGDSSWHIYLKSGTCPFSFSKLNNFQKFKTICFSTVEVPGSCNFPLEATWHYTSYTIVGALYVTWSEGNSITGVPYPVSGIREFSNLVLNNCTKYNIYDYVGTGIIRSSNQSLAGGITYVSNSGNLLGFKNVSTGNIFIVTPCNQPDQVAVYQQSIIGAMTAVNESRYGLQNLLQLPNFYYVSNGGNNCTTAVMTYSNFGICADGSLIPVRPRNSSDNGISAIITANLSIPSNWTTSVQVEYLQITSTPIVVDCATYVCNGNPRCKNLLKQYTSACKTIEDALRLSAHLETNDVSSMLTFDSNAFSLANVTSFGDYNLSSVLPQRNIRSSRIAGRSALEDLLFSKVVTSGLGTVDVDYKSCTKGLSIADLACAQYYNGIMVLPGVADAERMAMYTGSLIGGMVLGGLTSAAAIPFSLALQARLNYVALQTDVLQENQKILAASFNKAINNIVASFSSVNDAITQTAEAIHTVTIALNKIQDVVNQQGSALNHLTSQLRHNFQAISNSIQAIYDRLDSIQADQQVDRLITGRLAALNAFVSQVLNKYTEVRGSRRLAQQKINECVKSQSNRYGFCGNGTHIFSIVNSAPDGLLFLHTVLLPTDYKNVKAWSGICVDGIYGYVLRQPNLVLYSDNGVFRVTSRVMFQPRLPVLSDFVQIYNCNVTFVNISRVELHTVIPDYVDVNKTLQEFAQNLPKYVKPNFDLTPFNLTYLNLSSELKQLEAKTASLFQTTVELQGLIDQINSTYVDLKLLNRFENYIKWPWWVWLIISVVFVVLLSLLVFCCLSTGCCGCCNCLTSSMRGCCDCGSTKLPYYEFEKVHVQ
Chain of UniProt P0A8V2 (whole entry, looked up): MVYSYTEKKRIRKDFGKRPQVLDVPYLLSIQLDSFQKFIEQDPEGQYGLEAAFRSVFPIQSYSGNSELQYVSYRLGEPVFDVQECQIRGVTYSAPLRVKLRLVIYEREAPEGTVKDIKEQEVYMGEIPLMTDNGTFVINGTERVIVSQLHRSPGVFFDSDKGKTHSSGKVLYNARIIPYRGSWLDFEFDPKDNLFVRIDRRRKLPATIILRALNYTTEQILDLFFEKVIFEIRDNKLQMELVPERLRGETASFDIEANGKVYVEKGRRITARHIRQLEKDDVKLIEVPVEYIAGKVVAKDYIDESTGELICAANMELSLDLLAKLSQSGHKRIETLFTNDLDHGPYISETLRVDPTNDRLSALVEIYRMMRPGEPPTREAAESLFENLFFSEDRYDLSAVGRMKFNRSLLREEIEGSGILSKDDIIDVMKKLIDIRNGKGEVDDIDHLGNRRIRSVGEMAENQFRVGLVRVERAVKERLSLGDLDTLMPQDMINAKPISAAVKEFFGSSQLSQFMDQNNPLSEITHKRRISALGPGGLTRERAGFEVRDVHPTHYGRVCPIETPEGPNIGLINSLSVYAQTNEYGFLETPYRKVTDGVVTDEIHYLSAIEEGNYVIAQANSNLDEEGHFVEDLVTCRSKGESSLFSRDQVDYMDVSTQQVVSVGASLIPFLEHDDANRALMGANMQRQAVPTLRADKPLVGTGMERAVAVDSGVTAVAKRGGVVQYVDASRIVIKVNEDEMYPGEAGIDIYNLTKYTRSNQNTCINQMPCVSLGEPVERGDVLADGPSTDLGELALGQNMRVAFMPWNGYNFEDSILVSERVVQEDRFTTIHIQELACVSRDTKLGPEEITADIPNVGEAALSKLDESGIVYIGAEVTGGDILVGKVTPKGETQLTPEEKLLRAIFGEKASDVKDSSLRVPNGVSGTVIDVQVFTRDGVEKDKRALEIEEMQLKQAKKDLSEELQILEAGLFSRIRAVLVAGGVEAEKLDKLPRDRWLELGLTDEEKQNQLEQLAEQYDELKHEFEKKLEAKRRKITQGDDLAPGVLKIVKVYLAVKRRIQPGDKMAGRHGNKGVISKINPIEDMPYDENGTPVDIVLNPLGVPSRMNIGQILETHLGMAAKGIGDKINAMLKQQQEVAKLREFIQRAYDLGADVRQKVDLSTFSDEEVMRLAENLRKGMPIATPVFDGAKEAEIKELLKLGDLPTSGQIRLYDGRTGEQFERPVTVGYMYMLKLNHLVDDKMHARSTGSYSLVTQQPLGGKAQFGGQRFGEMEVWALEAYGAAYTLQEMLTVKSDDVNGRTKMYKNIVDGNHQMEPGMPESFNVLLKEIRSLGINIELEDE
Chain of UniProt P36544 (whole entry, looked up): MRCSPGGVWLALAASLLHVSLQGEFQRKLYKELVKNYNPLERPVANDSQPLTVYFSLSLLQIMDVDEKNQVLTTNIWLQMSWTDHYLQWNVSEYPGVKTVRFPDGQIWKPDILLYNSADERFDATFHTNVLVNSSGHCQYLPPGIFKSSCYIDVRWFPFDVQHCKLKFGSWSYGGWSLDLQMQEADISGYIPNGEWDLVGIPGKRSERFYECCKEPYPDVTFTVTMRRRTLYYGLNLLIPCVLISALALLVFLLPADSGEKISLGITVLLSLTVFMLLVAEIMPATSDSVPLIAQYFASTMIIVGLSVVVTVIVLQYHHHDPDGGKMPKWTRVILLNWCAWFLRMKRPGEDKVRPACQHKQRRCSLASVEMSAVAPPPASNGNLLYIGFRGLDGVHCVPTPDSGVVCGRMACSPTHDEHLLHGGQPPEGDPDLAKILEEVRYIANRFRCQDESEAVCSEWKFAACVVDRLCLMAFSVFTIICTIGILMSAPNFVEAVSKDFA
Chain of UniProt P17787 (whole entry, looked up): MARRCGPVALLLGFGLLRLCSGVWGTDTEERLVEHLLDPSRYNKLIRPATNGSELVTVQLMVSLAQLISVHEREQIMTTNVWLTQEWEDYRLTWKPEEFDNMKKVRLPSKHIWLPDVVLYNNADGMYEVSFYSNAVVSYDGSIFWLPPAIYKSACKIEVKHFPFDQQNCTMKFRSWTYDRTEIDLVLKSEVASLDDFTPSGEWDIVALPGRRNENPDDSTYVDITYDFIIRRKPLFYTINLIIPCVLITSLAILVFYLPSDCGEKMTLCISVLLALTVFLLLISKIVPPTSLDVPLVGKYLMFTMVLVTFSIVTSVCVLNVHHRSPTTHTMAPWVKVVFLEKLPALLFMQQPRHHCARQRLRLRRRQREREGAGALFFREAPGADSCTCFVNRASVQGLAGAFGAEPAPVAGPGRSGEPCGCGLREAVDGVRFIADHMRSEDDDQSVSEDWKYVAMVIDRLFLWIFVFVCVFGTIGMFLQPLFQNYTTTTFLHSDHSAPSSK

With `C=C1CCCC2=NC[C@H](C)[C@@H](C)C[C@@]23CCC(C(=O)O)=C[C@@H]3[C@@H]2O[C@]3(C[C@H]4CCC[C@@]5(CC[C@@]6(O[C@@H](CC[C@@]6(C)O)C1)O5)O4)C[C@@H](C)[C@@H](O)[C@H]2O3` the IC50 was 30.4 nM (Neuronal acetylcholine receptor; alpha4/beta2 (Homo sapiens, UniProt P17787+P43681); ion current, two-electrode voltage clamp; oocytes).
For `CC[C@H](C)[C@H](NC(=O)[C@H](CC(C)C)NC(=O)[C@H](Cc1c[nH]c2ccccc12)NC(=O)[C@H](CCC(N)=O)NC(=O)[C@@H](NC(=O)[C@H](Cc1ccccc1)NC(=O)[C@H](C)NC(=O)[C@H](CCCCNC(=O)COCCOCCNC(=O)COCCOCCNC(=O)CC[C@H](NC(=O)CCCCCCCCCCCCCCCCCCC(=O)O)C(=O)O)NC(=O)[C@H](CCC(N)=O)NC(=O)[C@H](C)NC(=O)[C@@H](NC(=O)[C@H](CCCCN)NC(=O)[C@H](CC(=O)O)NC(=O)[C@H](CC(C)C)NC(=O)C(C)(C)NC(=O)[C@@H](NC(=O)[C@H](CO)NC(=O)[C@H](Cc1ccc(O)cc1)NC(=O)[C@H](CC(=O)O)NC(=O)[C@H](CO)NC(=O)[C@@H](NC(=O)[C@H](Cc1ccccc1)NC(=O)[C@@H](NC(=O)CNC(=O)[C@H](CCC(=O)O)NC(=O)C(C)(C)NC(=O)[C@@H](N)Cc1ccc(O)cc1)[C@@H](C)O)[C@@H](C)O)[C@@H](C)CC)[C@@H](C)CC)C(C)C)C(=O)N[C@@H](C)C(=O)NCC(=O)NCC(=O)N1CCC[C@H]1C(=O)N[C@@H](CO)C(=O)N[C@@H](CO)C(=O)NCC(=O)N[C@@H](C)C(=O)N1CCC[C@H]1C(=O)N1CCC[C@H]1C(=O)N1CCC[C@H]1C(=O)N[C@@H](CO)C(N)=O`, “treatment-induced ADA positive subjects” read 0% (healthy subjects, single ascending dose; 2.5 mg, titre ≥1:20).
`Nc1ncnc2c([C@@H]3N[C@H](CO)[C@@H](O)[C@H]3O)c[nH]c12`: “viral RNA copies” 2.03e+06 copies/mL (Marburg virus; HeLa, Musoke; 12.5 µM, 1 h).
`C=CC1=C[C@@H]2[C@@H]3O[C@]4(C[C@H]5CCC[C@@]6(CC[C@@]7(O[C@@H](CC[C@@]7(C)O)CC(=C)CCCC7=NC[C@H](C)[C@@H](C)C[C@@]72CC1)O6)O5)C[C@@H](C)[C@@H](O)[C@H]3O4` has an IC50 of 5.06 nM (Neuronal acetylcholine receptor subunit alpha-7 (CHRNA7, Homo sapiens, UniProt P36544); ion current, antagonist, two-electrode voltage clamp; oocytes).
`CCN1C[C@H](C)n2c(c(O)c3c(=O)n(Cc4ccc(F)c(Cl)c4)nc(C(=O)NC)c32)C1=O` gave an IC50 of 26 ± 8 nM (Gag-Pol polyprotein, integrase (gag-pol, Human immunodeficiency virus 1, UniProt P12497, N1302H); concerted integration, inhibitor, item: donor-donor products; 3 h, 37 °C).
`C[C@H](Cn1cnc2c(N)ncnc21)OCP(=O)(O)O` gave an IC50 of 1056 ± 1.22 nM (Gag-Pol polyprotein, reverse transcriptase (gag-pol, Human immunodeficiency virus type 1 group M subtype B, UniProt P04585, K653R); inhibitor; HIV-1).
With `CCN(CC)c1nc(C)cc(OP(=S)(OC)OC)n1` the IC50 was over 450000 nM (uncharacterized protein (Anopheles coluzzii, UniProt A0A6E8VQK1); α-naphthyl acetate hydrolysis, inhibitor; Sf9 cell homogenate; 10 min preincubation).
With `CC(=O)O[C@@H]1[C@H](N)[C@@H](OP(=O)(O)O)[C@@]2(C(=O)O)CS[C@@](O)(C(N)=O)[C@@H]1O2` the Kd was 2800 ± 600 nM (DNA-directed RNA polymerase subunit beta' / DNA-directed RNA polymerase subunit beta (rpoC/rpoB, Escherichia coli, UniProt P0A8T7+P0A8V2); binding to elongation complex, 6-MI fluorescence titration; wild-type RNAP; 2′-deoxy RNA 3′-end Uracil).
`Cc1cn([C@H]2C[C@H](N=[N+]=[N-])[C@@H](CO[P@](=O)(O)O[P@](=O)(O)OP(=O)(O)O)O2)c(=O)[nH]c1=O` gave an IC50 of 559 nM (Gag-Pol polyprotein, reverse transcriptase (gag-pol, Human immunodeficiency virus type 1 group M subtype B, UniProt P04585, K653A); inhibitor; HIV-1).
For `CCOP(=O)(OCC)Oc1ccc([N+](=O)[O-])cc1`, the IC50 was 0.14 nM (rat liver carboxylesterase; enzyme activity, inhibitor; rat, postnatal day 12, liver homogenate; with: p-nitrophenyl valerate).
For `NCCc1c(SSc2[nH]c3cc(Br)ccc3c2CCN)[nH]c2cc(Br)ccc12`, the IC50 was 1100 nM (Potassium voltage-gated channel subfamily A member 4 (KCNA4, Homo sapiens, UniProt P22459); peak potassium current, inhibitor, automated whole-cell patch clamp; CHO-K1, tetracycline-inducible).
Under “remaining fibrinogen γ chain”, `CNC(=O)[C@@H](NC(=O)[C@H](CC(C)C)[C@H](O)C(=O)NO)C(C)(C)C` is recorded as 0.349 (human fibrinogen; SDS-PAGE; Daboia russelii; concentration not given, unit not given, with: MP venom; reference: untreated fibrinogen).
For `C[C@]12CC[C@H](O)C[C@H]1CC[C@@H]1[C@@H]2CC[C@]2(C)[C@@H](C3=CC(=O)OC3)CC[C@]12O`, the IC50 was 97 nM (Na+/K+-ATPase, pig; ATP hydrolysis, inhibitor).
`CC[C@H](C)[C@H](NC(=O)[C@H](CC(=O)O)NC(=O)[C@H](CO)NC(=O)[C@H](CC(=O)O)NC(=O)[C@H](CCCCN)NC(=O)[C@H](CCC(N)=O)NC(=O)[C@H](Cc1ccc(O)cc1)NC(=O)[C@H](CCC(=O)O)NC(=O)[C@H](CC(C)C)NC(=O)[C@@H](NC(=O)[C@H](CCC(=O)O)NC(=O)[C@H](CCSC)NC(=O)[C@@H](NC(=O)[C@H](CC(C)C)NC(=O)[C@H](CO)NC(=O)[C@H](CCC(=O)O)NC(=O)[C@H](CC(C)C)NC(=O)[C@H](CC(C)C)NC(=O)[C@H](CCCCN)NC(=O)[C@H](Cc1ccccc1)NC(=O)[C@H](CCC(=O)O)NC(=O)[C@H](CCC(=O)O)NC(=O)[C@H](Cc1ccc(O)cc1)NC(=O)[C@H](CC(C)C)NC(=O)[C@H](CC(C)C)NC(=O)[C@@H](NC(=O)[C@H](CCCCN)NC(=O)[C@@H](N)CC(C)C)C(C)C)[C@@H](C)CC)[C@@H](C)CC)C(=O)N[C@@H](CCCCN)C(=O)N[C@@H](CCC(=O)O)C(=O)N[C@@H](CC(N)=O)C(=O)N[C@@H](C)C(=O)N[C@@H](CCC(=O)O)C(=O)N[C@@H](CC(=O)O)C(=O)N[C@H](C(=O)N[C@@H](CCCCN)C(=O)O)[C@@H](C)O` gave an IC50 of over 5000 nM (Spike glycoprotein (S, Human coronavirus NL63, UniProt Q6Q1S2); cell-based).
For `COP(=O)(OC)Oc1ccc([N+](=O)[O-])cc1`, the IC50 was 0.6 nM (rat liver carboxylesterase; enzyme activity, inhibitor; rat, postnatal day 1, liver homogenate; with: p-nitrophenyl valerate).
For `Cn1cnc(Cn2c(=O)[nH]/c(=N\c3cc4cn(C)nc4cc3Cl)n(Cc3cc(F)c(F)cc3F)c2=O)n1`, the unbound fraction was 0.0165 (human, severe renal impairment, plasma; oral, 375 mg single dose, 24 h).
